# Published values collected from several papers.
# Each line is one published result; not all experiments were run side by side. ± marks the error that the study gave.
# GPR84: G-protein coupled receptor 84 (GPR84, Homo sapiens, UniProt Q9NQS5)
# Sequence of UniProt Q9NQS5 (whole entry, looked up): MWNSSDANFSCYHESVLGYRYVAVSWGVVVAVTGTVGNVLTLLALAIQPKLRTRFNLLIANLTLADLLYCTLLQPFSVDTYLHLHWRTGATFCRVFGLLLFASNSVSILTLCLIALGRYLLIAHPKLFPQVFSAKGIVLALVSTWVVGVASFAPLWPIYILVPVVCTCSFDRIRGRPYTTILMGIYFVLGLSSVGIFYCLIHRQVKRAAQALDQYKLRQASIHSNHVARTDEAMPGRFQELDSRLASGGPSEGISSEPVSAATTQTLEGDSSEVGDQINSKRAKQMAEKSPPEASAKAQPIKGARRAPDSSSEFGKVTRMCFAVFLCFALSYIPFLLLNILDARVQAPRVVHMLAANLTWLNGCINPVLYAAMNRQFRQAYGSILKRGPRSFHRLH
# ESR2: Estrogen receptor beta (ESR2, Homo sapiens, UniProt Q92731)
# Sequence of UniProt Q92731 (whole entry, looked up): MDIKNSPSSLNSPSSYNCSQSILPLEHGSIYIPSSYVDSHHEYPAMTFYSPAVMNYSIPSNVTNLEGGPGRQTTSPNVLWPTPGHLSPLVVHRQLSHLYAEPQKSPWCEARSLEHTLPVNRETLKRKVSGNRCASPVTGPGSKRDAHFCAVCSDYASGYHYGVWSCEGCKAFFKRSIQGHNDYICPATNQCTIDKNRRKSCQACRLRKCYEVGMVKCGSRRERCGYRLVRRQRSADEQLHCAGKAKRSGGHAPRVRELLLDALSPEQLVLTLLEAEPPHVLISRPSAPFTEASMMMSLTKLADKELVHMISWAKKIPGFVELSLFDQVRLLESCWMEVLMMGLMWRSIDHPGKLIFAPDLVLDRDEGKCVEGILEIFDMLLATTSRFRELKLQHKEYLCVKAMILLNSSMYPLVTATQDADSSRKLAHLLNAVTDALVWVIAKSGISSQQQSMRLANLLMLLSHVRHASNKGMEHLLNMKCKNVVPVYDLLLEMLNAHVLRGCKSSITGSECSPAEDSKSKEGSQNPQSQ
# BRAP ZnF-UBD domain: BRCA1-associated protein, ZnF-UBD domain (BRAP, Homo sapiens, UniProt Q7Z569)
# Sequence of UniProt Q7Z569 (whole entry, looked up): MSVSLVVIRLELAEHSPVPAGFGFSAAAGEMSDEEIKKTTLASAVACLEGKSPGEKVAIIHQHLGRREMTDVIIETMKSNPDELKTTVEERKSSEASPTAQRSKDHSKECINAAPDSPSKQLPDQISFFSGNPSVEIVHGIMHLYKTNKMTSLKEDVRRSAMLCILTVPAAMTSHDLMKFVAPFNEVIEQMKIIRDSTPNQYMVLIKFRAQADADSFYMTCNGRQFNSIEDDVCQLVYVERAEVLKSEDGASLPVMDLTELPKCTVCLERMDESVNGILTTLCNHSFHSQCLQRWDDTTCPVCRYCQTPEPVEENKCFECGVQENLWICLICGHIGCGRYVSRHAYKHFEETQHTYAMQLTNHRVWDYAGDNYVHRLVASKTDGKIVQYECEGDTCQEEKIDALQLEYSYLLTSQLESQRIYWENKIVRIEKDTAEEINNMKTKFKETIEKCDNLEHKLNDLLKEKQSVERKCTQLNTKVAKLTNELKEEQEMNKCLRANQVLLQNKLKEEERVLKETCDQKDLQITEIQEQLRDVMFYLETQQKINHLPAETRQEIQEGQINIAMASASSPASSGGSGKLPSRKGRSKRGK
# VCP: Transitional endoplasmic reticulum ATPase (VCP, Homo sapiens, UniProt P55072)
# Sequence of UniProt P55072 (whole entry, looked up): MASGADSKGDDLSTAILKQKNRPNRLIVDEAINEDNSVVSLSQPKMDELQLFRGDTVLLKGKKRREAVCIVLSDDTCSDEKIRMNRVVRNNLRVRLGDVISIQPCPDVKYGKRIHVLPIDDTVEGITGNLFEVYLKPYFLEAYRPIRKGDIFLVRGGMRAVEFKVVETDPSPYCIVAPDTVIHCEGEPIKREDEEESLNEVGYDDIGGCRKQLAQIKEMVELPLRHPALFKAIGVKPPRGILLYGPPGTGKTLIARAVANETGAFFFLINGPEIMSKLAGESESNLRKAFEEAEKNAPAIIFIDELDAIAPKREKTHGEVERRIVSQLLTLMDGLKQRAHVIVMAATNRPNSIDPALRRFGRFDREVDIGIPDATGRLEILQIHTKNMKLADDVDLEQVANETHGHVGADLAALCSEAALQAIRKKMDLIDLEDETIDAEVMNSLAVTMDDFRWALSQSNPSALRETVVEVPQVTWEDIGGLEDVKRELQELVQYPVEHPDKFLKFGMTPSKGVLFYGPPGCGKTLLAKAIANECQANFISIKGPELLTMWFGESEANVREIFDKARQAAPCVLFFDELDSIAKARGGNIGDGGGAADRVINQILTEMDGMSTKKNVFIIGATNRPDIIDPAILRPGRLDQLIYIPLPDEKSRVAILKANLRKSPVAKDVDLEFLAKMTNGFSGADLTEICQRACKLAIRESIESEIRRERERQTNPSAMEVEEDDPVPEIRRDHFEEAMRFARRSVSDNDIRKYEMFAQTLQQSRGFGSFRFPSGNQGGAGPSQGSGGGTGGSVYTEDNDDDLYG
# Sortilin: Sortilin (Homo sapiens, UniProt Q99523)
# Sequence of UniProt Q99523 (whole entry, looked up): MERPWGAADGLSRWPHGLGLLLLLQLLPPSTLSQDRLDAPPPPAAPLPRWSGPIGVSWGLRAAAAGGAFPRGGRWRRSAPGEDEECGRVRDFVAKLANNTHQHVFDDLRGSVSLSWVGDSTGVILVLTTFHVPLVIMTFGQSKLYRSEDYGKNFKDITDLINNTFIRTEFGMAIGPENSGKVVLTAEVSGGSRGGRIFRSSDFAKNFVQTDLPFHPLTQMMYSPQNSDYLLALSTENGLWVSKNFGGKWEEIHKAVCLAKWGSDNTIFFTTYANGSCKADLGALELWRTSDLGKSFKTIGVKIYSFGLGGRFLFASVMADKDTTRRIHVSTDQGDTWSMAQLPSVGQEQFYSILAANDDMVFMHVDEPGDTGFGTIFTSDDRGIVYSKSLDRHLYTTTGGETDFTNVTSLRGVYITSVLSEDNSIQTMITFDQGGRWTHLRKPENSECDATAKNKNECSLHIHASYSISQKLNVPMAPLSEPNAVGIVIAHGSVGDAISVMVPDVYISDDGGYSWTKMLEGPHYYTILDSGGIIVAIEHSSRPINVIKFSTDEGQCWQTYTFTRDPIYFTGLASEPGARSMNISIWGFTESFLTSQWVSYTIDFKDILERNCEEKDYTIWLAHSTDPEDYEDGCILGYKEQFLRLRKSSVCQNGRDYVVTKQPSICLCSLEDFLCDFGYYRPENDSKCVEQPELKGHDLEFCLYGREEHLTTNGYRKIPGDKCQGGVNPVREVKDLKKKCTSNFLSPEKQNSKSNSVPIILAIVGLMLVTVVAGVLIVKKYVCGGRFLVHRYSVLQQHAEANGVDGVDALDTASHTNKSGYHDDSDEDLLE
# Sequence of UniProt P41227 (whole entry, looked up): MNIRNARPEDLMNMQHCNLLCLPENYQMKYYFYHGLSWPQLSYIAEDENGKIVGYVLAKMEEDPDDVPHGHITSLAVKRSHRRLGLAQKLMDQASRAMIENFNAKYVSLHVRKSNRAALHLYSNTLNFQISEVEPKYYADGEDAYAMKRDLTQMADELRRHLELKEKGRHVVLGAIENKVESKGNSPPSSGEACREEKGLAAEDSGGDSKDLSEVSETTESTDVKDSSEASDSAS
# Sequence of UniProt Q92633 (whole entry, unmodified, looked up): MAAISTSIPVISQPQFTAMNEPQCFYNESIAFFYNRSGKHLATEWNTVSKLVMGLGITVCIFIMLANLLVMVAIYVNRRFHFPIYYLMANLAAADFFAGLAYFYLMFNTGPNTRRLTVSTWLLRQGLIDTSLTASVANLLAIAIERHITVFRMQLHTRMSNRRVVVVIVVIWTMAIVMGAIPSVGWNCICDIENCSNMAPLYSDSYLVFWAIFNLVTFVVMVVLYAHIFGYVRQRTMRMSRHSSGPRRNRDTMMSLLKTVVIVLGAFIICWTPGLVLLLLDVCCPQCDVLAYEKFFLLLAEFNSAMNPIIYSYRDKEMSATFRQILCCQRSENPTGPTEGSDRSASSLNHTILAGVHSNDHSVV
# Sequence of UniProt P28335 (whole entry, looked up): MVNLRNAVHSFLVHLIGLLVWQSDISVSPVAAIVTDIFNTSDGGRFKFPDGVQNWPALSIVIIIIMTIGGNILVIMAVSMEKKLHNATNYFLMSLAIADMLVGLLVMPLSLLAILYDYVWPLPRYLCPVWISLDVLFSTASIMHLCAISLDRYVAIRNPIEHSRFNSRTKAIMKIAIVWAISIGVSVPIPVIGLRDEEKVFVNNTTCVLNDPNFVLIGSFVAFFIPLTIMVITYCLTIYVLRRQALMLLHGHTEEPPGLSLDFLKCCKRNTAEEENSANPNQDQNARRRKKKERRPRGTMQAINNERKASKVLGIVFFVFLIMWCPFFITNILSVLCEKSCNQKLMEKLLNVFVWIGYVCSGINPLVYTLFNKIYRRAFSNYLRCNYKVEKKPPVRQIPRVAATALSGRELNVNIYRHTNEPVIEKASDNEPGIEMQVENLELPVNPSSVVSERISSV
# Sequence of UniProt P28223 (whole entry, looked up): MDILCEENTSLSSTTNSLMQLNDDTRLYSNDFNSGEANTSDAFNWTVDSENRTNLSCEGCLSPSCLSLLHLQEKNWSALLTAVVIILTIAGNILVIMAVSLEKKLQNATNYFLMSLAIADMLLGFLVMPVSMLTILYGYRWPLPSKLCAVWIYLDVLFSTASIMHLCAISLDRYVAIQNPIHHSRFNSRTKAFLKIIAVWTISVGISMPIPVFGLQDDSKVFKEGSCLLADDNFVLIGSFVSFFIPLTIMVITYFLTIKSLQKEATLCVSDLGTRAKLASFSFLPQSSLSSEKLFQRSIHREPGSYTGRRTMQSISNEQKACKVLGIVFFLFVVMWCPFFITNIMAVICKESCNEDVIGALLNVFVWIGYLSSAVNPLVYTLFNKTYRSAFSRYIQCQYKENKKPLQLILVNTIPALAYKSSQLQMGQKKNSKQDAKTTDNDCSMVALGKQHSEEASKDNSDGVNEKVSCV
Compound,target,test,system,conditions,measurement,value
CCc1ccc(CCNc2cc(=O)[nH]c(=O)[nH]2)cc1,GPR84,cAMP,,,EC50,0.00427 µM
O=c1c(O[C@@H]2O[C@H](CO)[C@@H](O)[C@H](O)[C@H]2O)c(-c2ccc(O)c(O)c2)oc2cc(O[C@@H]3O[C@H](CO[C@@H]4O[C@H](CO)[C@@H](O)[C@H](O)[C@H]4O)[C@@H](O)[C@H](O)[C@H]3O)cc(O)c12,ESR2,"array formation, agonist",GFP-ERβ PRL-HeLa,1 h,EC50,8.27 µM
O=C(O)CCn1nnc(-c2ccccc2)n1,BRAP ZnF-UBD domain,,,,Kd,> 1000 µM
N#C[C@@]12C[C@@H]1[C@@H](n1cnc3c(NC4CCCC4)nc(I)nc31)[C@H](O)[C@@H]2O,"HTR2A (Homo sapiens, UniProt P28223)","antagonist, Gq dissociation BRET",,human receptor,Kb,6.71 µM
CCc1oc2c([C@H](CO)N(CC)CC)cccc2c1C,"LPAR1 (Homo sapiens, UniProt Q92633, Q125A)","Gi protein dissociation, agonist, NanoBiT",HEK293T,,EC50,0.0065 µM
COc1cc(-c2oc3cc(O)cc(O)c3c(=O)c2O)ccc1O,ESR2,"array formation, agonist",GFP-ERβ PRL-HeLa,1 h,EC50,1.39 µM
COc1cccc2c(NCc3ccc(NC(=O)OCC4c5ccccc5-c5ccccc54)cc3)nc(N3CCOc4ccccc43)nc12,VCP,"enzyme activity, inhibitor",,,IC50,33 ± 7 µM
COc1cc(O)c2c(=O)c(O[C@@H]3O[C@H](CO)[C@@H](O)[C@H](O)[C@H]3O)c(-c3ccc(O[C@@H]4O[C@H](CO)[C@@H](O)[C@H](O)[C@H]4O)cc3)oc2c1,ESR2,"array formation, agonist",GFP-ERβ PRL-HeLa,1 h,EC50,5.15 µM
C=C1CN(S(=O)(=O)c2ccc(C)cc2)CCCN(CCc2ccccc2)CCCN(S(=O)(=O)c2ccc(C)cc2)C1,Sortilin,"protein expression, flow cytometry",HEK-293T expressing sortilin-GFP,24 h,DC50,1 ± 0.3 µM
Clc1ccc(Nc2nc(Nc3ccc(Cl)cc3)c3ccccc3n2)cc1,VCP,"enzyme activity, inhibitor",,,IC50,52 ± 10 µM
O=C(/C=C/c1ccc(O)cc1)c1c(O)cc(O)cc1O,ESR2,"array formation, agonist",GFP-ERβ PRL-HeLa,1 h,EC50,0.428 µM
NS(=O)(=O)c1ccc(NCC(=O)O)cc1,BRAP ZnF-UBD domain,,,,Kd,> 1000 µM
C=C1CN(S(=O)(=O)c2ccc(C)cc2)CCc2cc(-c3ccccc3)cc(n2)CCN(S(=O)(=O)c2ccc(C)cc2)C1,Sortilin,"protein expression, flow cytometry",HEK-293T expressing sortilin-GFP,24 h,DC50,4 ± 2 µM
O=c1cc(NCCc2ccccc2Cl)[nH]c(=O)[nH]1,GPR84,agonist,,,EC50,1.32 ± 0.09 µM
CC(C)(COP(=O)(O)OP(=O)(O)OC[C@H]1O[C@@H](n2cnc3c(N)ncnc32)[C@H](O)[C@@H]1OP(=O)(O)O)[C@@H](O)C(=O)NCCC(=O)NCCS,"N-alpha-acetyltransferase 10 (Homo sapiens, UniProt P41227)","competitor, competition MS pulldown",SW-620 cell lysate,added: photo-immobilized beads,Kd,1.38 µM
CC[C@H](C)[C@H](NC(=O)[C@H](CS)NC(=O)[C@H](CCC(=O)O)NC(=O)[C@H](C)NC(=O)[C@@H](NC(=O)[C@@H](N)CCCNC(=N)N)[C@@H](C)CC)C(=O)N[C@@H](CC(C)C)C(=O)NCC(=O)N[C@@H](CCSC)C(=O)O,"HLA class I histocompatibility antigen, A alpha chain, allele A*02:01 (Homo sapiens, UniProt P04439)","binding, competitor, radioligand competition",,"two days, room temperature, HLA-A*02:01",IC50,6.72 µM
c1ccc2c(c1)OCCN2c1nc(N2CCOc3ccccc32)c2ccccc2n1,VCP,"enzyme activity, inhibitor",,,IC50,> 30 µM
NC(=O)c1cc(-n2c(CCC(=O)O)nc3ccccc32)cs1,BRAP ZnF-UBD domain,,,,Kd,> 1000 µM
C=C1CN(S(=O)(=O)c2ccc(OC)cc2)CCCN(CC2CCCCC2)CCCN(S(=O)(=O)c2ccc(N(C)C)cc2)C1,Sortilin,"protein expression, flow cytometry",HEK-293T expressing sortilin-GFP,24 h,DC50,0.1 ± 0.06 µM
COc1ccc(-c2nc(NCc3ccc(C)cc3)c3ccccc3n2)cc1,VCP,"enzyme activity, inhibitor",,,IC50,8 ± 2 µM
CNC(=O)[C@@]12C[C@@H]1[C@@H](n1cnc3c(NC)nc(C#C[c-]4cccc4)nc31)[C@H](O)[C@@H]2O.[Fe+2].c1cc[cH-]c1,"HTR2C (Homo sapiens, UniProt P28335)",radioligand binding (PDSP),,,Ki,0.277 µM
COc1cc(O)c(CC=C(C)C)c2c1C(=O)CC(c1ccc(O)cc1)O2 (centres unmarked),ESR2,"array formation, agonist",GFP-ERβ PRL-HeLa,1 h,EC50,2.24 µM
COc1cc(F)ccc1-c1ncnc(Nc2cccc(C[S@](C)(=N)=O)c2)n1,"MLCK, human",kinase activity,,"10 µM, added: ATP 10 µM",remaining activity,69%
O=C(O)CNc1ncccn1,BRAP ZnF-UBD domain,,,,Kd,> 1000 µM
O=c1cc(NCCc2ccc(Cl)cc2Cl)[nH]c(=O)[nH]1,GPR84,agonist,,,EC50,0.0821 ± 0.0348 µM
COc1ccc(-c2oc3c(CC=C(C)C)c(O[C@@H]4O[C@H](CO)[C@@H](O)[C@H](O)[C@H]4O)cc(O)c3c(=O)c2O)cc1,ESR2,"array formation, agonist",GFP-ERβ PRL-HeLa,1 h,EC50,4.39 µM
Cc1ccc(Nc2nc(Nc3ccc(C)cc3)c3ccccc3n2)cc1,VCP,"enzyme activity, inhibitor",,,IC50,54 ± 19 µM
Cc1ccccc1CCNc1cc(=O)[nH]c(=O)[nH]1,GPR84,"cAMP level, agonist",human cells,,EC50,3.22 ± 0.08 µM
O=c1cc(-c2ccc(O)cc2)oc2cccc(O)c12,ESR2,"array formation, agonist",GFP-ERβ PRL-HeLa,1 h,EC50,0.244 µM
O=c1cc(NCCc2cccc(Br)c2)[nH]c(=O)[nH]1,GPR84,agonist,,,EC50,0.186 µM
CN(Cc1ccccc1)c1nc(-c2ccccc2F)nc2ccccc12,VCP,"enzyme activity, inhibitor",,,IC50,25 ± 4 µM
O=c1cc(NCCc2ccc(F)cc2)[nH]c(=O)[nH]1,GPR84,agonist,,,EC50,1.95 µM
O=C(O)CN1Cc2ccccc2C1=O,BRAP ZnF-UBD domain,,,,Kd,685 µM
c1ccc(CNc2nc(N3CCN(Cc4ccccc4)CC3)nc3ccccc23)cc1,VCP,"enzyme activity, inhibitor",,,IC50,33 ± 8 µM
O=c1cc(-c2ccccc2)oc2ccc(O)cc12,ESR2,"array formation, agonist",GFP-ERβ PRL-HeLa,1 h,EC50,2.63 µM
COc1ccc(C=C2SC(=O)N(C(C)C(=O)O)C2=O)cc1 (centres unmarked),BRAP ZnF-UBD domain,,,,Kd,> 1000 µM
O=c1cc(N2CCC(Cc3ccccc3)CC2)[nH]c(=O)[nH]1,GPR84,cAMP,,,EC50,0.135 µM
O=C(O)CCc1ccccc1,BRAP ZnF-UBD domain,,,,Kd,82.9 µM
Clc1ccc(-c2nc(NCc3ccccc3)c3ccccc3n2)cc1Cl,VCP,"enzyme activity, inhibitor",,,IC50,7.1 ± 0.4 µM
O=C(O)Cn1cc2ccccc2n1,BRAP ZnF-UBD domain,,,,Kd,411 µM
CCCCCCNc1[nH]c(=O)[nH]c(=O)c1Br,GPR84,"cAMP level, agonist",human cells,,EC50,7.37 ± 1.57 µM

# A few entries again:
Compound,target,test,system,conditions,measurement,value
C=C1CN(S(=O)(=O)c2ccc(C)cc2)CCc2cc(-c3ccccc3)cc(n2)CCN(S(=O)(=O)c2ccc(C)cc2)C1,Sortilin,"protein expression, flow cytometry",HEK-293T expressing sortilin-GFP,24 h,DC50,4 ± 2 µM
O=c1cc(NCCc2ccc(F)cc2)[nH]c(=O)[nH]1,GPR84,agonist,,,EC50,1.95 µM
Clc1ccc(-c2nc(NCc3ccccc3)c3ccccc3n2)cc1Cl,VCP,"enzyme activity, inhibitor",,,IC50,7.1 ± 0.4 µM
CCc1ccc(CCNc2cc(=O)[nH]c(=O)[nH]2)cc1,GPR84,cAMP,,,EC50,0.00427 µM
NS(=O)(=O)c1ccc(NCC(=O)O)cc1,BRAP ZnF-UBD domain,,,,Kd,> 1000 µM
Cc1ccccc1CCNc1cc(=O)[nH]c(=O)[nH]1,GPR84,"cAMP level, agonist",human cells,,EC50,3.22 ± 0.08 µM
C=C1CN(S(=O)(=O)c2ccc(C)cc2)CCCN(CCc2ccccc2)CCCN(S(=O)(=O)c2ccc(C)cc2)C1,Sortilin,"protein expression, flow cytometry",HEK-293T expressing sortilin-GFP,24 h,DC50,1 ± 0.3 µM
